{"data": "Published values collected from several papers", "note": "Lines come from different studies, so protocols differ. ± gives the spread as reported.", "chain of UniProt Q14451 (whole entry, looked up)": "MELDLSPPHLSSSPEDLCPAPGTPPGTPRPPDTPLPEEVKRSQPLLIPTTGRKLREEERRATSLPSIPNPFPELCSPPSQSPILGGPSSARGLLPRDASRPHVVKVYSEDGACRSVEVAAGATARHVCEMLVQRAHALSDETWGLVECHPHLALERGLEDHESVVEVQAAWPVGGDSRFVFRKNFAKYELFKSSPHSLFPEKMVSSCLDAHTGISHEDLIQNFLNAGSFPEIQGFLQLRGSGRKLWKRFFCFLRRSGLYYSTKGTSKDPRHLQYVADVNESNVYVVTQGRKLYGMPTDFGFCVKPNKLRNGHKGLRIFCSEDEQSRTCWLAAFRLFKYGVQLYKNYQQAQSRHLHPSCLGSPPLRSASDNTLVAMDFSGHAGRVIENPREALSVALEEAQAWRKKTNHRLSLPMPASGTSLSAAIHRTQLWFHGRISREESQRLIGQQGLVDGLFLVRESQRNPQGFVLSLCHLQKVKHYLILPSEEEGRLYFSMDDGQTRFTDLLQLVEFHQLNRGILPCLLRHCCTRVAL", "chain of UniProt P49116 (whole entry, looked up)": "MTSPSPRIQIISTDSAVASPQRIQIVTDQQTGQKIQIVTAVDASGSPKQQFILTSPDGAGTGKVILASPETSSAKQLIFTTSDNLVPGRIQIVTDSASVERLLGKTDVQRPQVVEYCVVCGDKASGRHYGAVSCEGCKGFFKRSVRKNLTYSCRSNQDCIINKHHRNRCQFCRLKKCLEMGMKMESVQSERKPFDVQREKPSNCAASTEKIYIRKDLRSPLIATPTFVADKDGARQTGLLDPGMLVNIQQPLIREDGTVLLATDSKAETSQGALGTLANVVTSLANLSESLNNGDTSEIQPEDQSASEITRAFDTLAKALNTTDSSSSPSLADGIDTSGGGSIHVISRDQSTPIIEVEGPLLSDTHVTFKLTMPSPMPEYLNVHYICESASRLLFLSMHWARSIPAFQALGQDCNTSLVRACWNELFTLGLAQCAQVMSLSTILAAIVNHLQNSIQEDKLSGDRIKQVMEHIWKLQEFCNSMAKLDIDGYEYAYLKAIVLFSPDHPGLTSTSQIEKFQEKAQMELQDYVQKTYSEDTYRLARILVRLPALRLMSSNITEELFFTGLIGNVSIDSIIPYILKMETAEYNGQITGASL", "chain of UniProt Q15464 (whole entry, looked up)": "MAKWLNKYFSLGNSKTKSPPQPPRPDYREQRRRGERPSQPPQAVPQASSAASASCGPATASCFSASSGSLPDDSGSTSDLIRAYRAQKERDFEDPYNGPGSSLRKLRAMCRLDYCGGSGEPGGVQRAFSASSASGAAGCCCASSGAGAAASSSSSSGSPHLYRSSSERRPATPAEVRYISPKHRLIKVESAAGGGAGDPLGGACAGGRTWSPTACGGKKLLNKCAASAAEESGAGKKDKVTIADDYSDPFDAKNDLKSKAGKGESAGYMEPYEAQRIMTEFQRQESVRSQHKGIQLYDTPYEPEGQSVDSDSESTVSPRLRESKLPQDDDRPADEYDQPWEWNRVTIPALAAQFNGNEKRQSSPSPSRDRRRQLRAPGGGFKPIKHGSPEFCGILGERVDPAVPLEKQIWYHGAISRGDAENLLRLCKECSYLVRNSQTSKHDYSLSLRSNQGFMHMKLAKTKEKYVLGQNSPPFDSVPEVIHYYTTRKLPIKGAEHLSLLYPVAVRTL", "chain of UniProt Q9LIQ6 (whole entry, looked up)": "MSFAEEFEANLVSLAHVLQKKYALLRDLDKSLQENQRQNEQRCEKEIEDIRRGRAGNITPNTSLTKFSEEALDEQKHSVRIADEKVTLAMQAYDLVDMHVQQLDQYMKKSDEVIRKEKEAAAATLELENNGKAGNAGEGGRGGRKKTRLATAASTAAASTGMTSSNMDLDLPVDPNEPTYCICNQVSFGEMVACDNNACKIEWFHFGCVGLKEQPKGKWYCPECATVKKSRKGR", "chain of UniProt O00635 (whole entry, looked up)": "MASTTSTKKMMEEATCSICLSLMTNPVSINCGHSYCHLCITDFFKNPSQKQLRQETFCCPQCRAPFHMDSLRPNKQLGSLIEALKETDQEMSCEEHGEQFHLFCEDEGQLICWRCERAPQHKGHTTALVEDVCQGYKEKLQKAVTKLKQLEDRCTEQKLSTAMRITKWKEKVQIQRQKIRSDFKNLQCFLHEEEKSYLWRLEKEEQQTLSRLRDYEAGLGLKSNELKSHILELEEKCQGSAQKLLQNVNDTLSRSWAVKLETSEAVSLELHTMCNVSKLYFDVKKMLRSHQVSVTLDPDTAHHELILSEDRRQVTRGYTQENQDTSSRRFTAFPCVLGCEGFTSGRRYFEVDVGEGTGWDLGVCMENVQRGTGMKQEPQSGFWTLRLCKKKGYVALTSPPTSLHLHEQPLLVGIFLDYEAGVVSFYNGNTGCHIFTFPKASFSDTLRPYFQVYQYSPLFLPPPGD", "chain of UniProt Q06124 (whole entry, looked up)": "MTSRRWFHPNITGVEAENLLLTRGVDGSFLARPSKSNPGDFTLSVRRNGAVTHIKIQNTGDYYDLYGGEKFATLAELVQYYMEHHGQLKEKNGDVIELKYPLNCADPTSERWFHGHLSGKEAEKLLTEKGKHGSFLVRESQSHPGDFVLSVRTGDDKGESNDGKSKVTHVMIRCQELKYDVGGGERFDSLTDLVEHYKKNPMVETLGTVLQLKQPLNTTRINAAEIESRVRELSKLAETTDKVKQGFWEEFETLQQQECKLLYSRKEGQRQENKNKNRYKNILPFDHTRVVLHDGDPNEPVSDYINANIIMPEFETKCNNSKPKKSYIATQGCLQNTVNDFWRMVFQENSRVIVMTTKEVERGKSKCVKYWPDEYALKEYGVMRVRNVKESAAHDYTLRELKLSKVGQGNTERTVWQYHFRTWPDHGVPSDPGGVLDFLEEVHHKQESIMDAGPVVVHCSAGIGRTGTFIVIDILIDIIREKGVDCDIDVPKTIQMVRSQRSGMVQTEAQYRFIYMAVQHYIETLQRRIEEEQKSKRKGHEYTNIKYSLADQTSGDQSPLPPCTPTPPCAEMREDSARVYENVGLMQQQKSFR", "chain of UniProt P40073 (whole entry, looked up)": "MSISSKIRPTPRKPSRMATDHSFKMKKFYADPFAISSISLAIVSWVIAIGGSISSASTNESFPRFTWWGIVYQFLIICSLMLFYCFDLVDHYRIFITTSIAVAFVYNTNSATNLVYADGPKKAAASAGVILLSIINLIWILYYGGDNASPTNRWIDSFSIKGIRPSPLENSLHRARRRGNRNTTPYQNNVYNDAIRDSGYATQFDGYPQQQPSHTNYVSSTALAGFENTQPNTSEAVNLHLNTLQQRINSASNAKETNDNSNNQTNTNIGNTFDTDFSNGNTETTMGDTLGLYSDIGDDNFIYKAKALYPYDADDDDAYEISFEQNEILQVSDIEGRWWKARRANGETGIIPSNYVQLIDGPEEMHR", "chain of UniProt Q9LK43 (whole entry, looked up)": "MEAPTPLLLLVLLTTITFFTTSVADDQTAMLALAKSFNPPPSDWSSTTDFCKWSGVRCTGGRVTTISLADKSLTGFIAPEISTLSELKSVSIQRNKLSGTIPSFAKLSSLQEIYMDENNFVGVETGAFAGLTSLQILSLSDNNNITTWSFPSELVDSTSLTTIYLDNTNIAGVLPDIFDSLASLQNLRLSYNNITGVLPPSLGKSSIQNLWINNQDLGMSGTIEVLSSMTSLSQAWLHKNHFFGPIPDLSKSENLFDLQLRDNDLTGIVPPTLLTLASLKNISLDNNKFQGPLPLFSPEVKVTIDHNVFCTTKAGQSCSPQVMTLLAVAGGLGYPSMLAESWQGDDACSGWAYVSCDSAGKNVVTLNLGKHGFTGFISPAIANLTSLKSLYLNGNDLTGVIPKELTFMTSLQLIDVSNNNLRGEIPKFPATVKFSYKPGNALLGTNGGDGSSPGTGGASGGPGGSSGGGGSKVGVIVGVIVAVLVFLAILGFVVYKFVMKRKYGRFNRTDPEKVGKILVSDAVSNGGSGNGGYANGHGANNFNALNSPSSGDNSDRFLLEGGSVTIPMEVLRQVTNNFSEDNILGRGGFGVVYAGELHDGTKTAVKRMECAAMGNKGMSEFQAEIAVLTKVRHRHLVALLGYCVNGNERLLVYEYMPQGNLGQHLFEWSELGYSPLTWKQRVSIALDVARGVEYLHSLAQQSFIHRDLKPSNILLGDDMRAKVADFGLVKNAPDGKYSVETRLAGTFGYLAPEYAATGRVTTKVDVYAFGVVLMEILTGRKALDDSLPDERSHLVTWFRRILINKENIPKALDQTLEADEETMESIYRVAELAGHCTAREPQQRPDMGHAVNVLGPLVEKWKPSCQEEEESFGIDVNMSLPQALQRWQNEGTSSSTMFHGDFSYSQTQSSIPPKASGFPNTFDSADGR", "chain of UniProt P98170 (whole entry, looked up)": "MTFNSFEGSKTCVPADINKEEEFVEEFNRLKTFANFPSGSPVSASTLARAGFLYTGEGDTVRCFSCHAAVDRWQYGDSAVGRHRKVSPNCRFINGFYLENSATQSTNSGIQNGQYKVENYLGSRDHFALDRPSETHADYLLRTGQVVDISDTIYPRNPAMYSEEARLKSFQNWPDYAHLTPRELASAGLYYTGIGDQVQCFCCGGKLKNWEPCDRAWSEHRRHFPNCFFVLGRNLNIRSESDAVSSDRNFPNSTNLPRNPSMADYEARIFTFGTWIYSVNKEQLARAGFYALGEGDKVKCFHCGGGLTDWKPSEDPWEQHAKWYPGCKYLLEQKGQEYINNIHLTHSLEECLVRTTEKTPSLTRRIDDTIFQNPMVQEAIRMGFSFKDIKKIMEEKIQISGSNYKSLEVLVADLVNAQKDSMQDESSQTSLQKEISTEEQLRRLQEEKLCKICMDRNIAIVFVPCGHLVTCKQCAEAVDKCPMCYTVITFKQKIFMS"}
{"SMILES": "CC(C)C[C@@H]1NC(=O)CNC(=O)[C@H](CC(C)C)NC(=O)[C@@H]2CCCN2C(=O)[C@H](CC(=O)O)NC(=O)[C@H](Cc2ccc(O)cc2)NC(=O)CNC(=O)[C@@H](Cc2ccc(O)cc2)NC(=O)CSC[C@@H](C(N)=O)NC(=O)[C@H](C)NC(=O)[C@H](Cc2ccccc2)NC(=O)[C@H](Cc2ccc(O)cc2)NC(=O)[C@H](CCCCN)NC1=O", "target": "Vacuolar protein sorting-associated protein 29 (VPS29, Homo sapiens, UniProt Q9UBQ0)", "test": "ITC", "setting": "25 °C", "Kd": "9 ± 2 nM"}
{"SMILES": "CCCc1ccc(O)c(-c2cc(CCC)ccc2O)c1", "target": "E3 ubiquitin-protein ligase TRIM38 (TRIM38, Homo sapiens, UniProt O00635)", "Kd": "30500 nM"}
{"SMILES": "C[C@H](NC(=O)[C@@H](NC(=O)[C@H](CO)NC(=O)[C@H](Cc1c[nH]cn1)NC(=O)[C@@H]1CCCN1C(=O)[C@H](CC(=O)O)NC(=O)[C@H](CCC(N)=O)NC(=O)[C@H](Cc1ccc(OP(=O)(O)O)cc1)NC(=O)[C@H](Cc1c[nH]cn1)NC(=O)[C@@H]1CCCN1C(=O)[C@H](CC(=O)O)NC(=O)[C@H](CCCNC(=N)N)NC(=O)[C@H](CO)NC(=O)[C@@H]1CCCN1C(=O)[C@H](C)NC(=O)[C@@H]1CCCN1C(=O)[C@H](CC(N)=O)NC(=O)c1ccc2c(c1)C(=O)OC21c2ccc(N(C)C)cc2Oc2cc(N(C)C)ccc21)[C@@H](C)O)C(=O)N[C@@H](CC(=O)O)C(=O)O", "target": "SH2 domain-containing adapter protein B, SH2 domain (SHB, Homo sapiens, UniProt Q15464)", "test": "binding", "Kd": "991 nM"}
{"SMILES": "C[N+](C)(C)[C@@H](Cc1c[nH]c(=S)[nH]1)C(=O)[O-]", "target": "Ergothioneine transport permease/ergothioneine binding protein EgtU, substrate-binding domain (egtU, Helicobacter pylori, UniProt B5Z7I3, S297F)", "test": "binding, isothermal titration calorimetry", "setting": "substrate-binding domain", "Kd": "34.1 nM"}
{"SMILES": "CC(C)C[C@H](NC(=O)[C@H](CCC(N)=O)NC(=O)[C@H](CC(C)C)NC(=O)[C@H](CC(C)C)NC(=O)[C@H](CO)NC(=O)[C@H](Cc1c[nH]cn1)NC(=O)[C@H](CC(C)C)NC(=O)[C@H](CC(=O)O)NC(=O)[C@H](CO)NC(=O)[C@H](CCC(=O)O)NC(=O)[C@H](Cc1ccccc1)NC(=O)[C@H](C)NC(=O)[C@H](Cc1ccccc1)NC(=O)[C@H](CCC(N)=O)NC(=O)[C@H](C)N)C(=O)N[C@@H](CCCCN)C(=O)N[C@@H](CCCCN)C(=O)N[C@@H](CCCCN)C(=O)N[C@@H](CCCCNC(=O)CCCCCNC(=S)Nc1ccc2c(c1)C(=O)OC21c2ccc(O)cc2Oc2cc(O)ccc21)C(N)=O", "target": "E3 ubiquitin-protein ligase XIAP, BIR1 domain (XIAP, Homo sapiens, UniProt P98170)", "test": "fluorescence polarization", "setting": "30 min, pH 7.5, together with: 20 nM FITC-labeled peptide", "Kd": "no binding"}
{"SMILES": "Cc1cn([C@H]2C[C@H](O)[C@@H](COP(=O)(O)OP(=O)(O)OP(=O)(O)O)O2)c(=O)[nH]c1=O", "target": "DNA polymerase I, Klenow fragment (polA, Escherichia coli, UniProt P00582, C907S/D424A/E710Q/L744C)", "test": "nucleotide incorporation, substrate, single-turnover rapid quench", "setting": "together with: radiolabelled primer-template DNA", "Kd": "320000 ± 20000 nM"}
{"SMILES": "CC(=O)c1cnc2ccc(-c3cc(Cl)c(O)c(Cl)c3)nc2c1N[C@H]1CC[C@H](CN(C)C)CC1", "target": "Receptor-like kinase TMK4 (TMK4, Arabidopsis thaliana, UniProt Q9LK43)", "test": "binding, SPR", "Kd": "15300 nM"}
{"SMILES": "CSCC[C@H](NC(=O)[C@H](Cc1ccc(OP(=O)(O)O)cc1)NC(=O)CNC(=O)CNC(=O)[C@H](CC(=O)O)NC(=O)[C@H](CO)NC(=O)[C@H](CCC(=O)O)NC(=O)CNC(=O)[C@@H](NC(=O)[C@H](CC(C)C)NC(=O)[C@H](CO)NC(=O)c1ccc2c(c1)C(=O)OC21c2ccc(N(C)C)cc2Oc2cc(N(C)C)ccc21)[C@@H](C)O)C(=O)N[C@@H](CC(=O)O)C(=O)N[C@@H](CCSC)C(=O)N[C@@H](CO)C(=O)N[C@@H](CCCCN)C(=O)N[C@@H](CC(=O)O)C(=O)N[C@@H](CCC(=O)O)C(=O)N[C@@H](CC(=O)O)C(=O)O", "target": "Ras and Rab interactor 1, SH2 domain (RIN1, Homo sapiens, UniProt Q13671)", "test": "binding", "Kd": "724 nM"}
{"SMILES": "CC(=O)N[C@H](C(=O)N[C@@H](CC(N)=O)C(=O)N[C@@H](CCCCN)C(=O)N[C@@H](C)C(=O)N[C@@H](CC(C)C)C(=O)N1CCC[C@H]1C(=O)N[C@@H](C)C(=O)N[C@@H](CC(C)C)C(=O)N1CCC[C@H]1C(=O)N[C@H](C(=O)N[C@@H](C)C(N)=O)C(C)C)C(C)C", "target": "High osmolarity signaling protein SHO1, SH3 domain (SHO1, Saccharomyces cerevisiae, UniProt P40073)", "test": "binding, isothermal titration calorimetry", "test system": "50 mM sodium phosphate, 100 mM NaCl", "setting": "pH 7.0, 25 °C", "Kd": "15700 ± 800 nM"}
{"SMILES": "CC[C@H](C)[C@H](NC(=O)[C@@H](NC(=O)CNC(=O)[C@H](C)NC(=O)[C@@H](N)CCCNC(=N)N)C(C)C)C(=O)N[C@@H](CCCCN)C(=O)N[C@@H](CCCCN)C(=O)N[C@H](C(=O)O)[C@@H](C)O", "target": "Interferon regulatory factor 2-binding protein 2, RING domain (Homo sapiens, UniProt Q7Z5L9)", "test": "isothermal titration calorimetry", "Kd": "12900 ± 1170 nM"}
{"SMILES": "CSCC[C@H](NC(=O)CNC(=O)[C@H](Cc1ccccc1)NC(=O)[C@H](CC(=O)O)NC(=O)CNC(=O)c1ccc2c(c1)C(=O)OC21c2ccc(N(C)C)cc2Oc2cc(N(C)C)ccc21)C(=O)N[C@@H](CO)C(=O)N[C@@H](CCCNC(=N)N)C(=O)N[C@@H](CC(=O)O)C(=O)N[C@H](C(=O)N[C@@H](Cc1ccc(OP(=O)(O)O)cc1)C(=O)N[C@@H](CO)C(=O)N[C@H](C(=O)N[C@@H](CC(=O)O)C(=O)N[C@@H](Cc1ccc(O)cc1)C(=O)N[C@@H](Cc1ccc(O)cc1)C(=O)N[C@@H](CCCNC(=N)N)C(=O)N[C@H](C(=O)N[C@@H](CC(=O)O)C(=O)O)C(C)C)[C@@H](C)O)C(C)C", "target": "Tyrosine-protein phosphatase non-receptor type 11, SH2 domains (PTPN11, Homo sapiens, UniProt Q06124)", "test": "binding", "Kd": "550 nM"}
{"SMILES": "C[C@H](N)C(=O)N[C@@H](CCCNC(=N)N)C(=O)N[C@H](C(=O)N[C@@H](CCCC[N+](C)(C)C)C(=O)N[C@@H](CCC(N)=O)C(=O)N[C@H](C(=O)N[C@@H](C)C(=O)N[C@@H](CCCNC(=N)N)C(=O)N[C@@H](CCCCN)C(=O)N[C@@H](CO)C(=O)O)[C@@H](C)O)[C@@H](C)O", "target": "PHD finger protein ING1, PHD finger (163-234) (ING1, Arabidopsis thaliana, UniProt Q9LIQ6)", "test": "binding, isothermal titration calorimetry", "setting": "pH 7.0, together with: histone H3 peptide", "Kd": "860 nM"}
{"SMILES": "CC12CCC(CC1)C(C)(C)O2", "target": "1,8-cineole 2-endo-monooxygenase (cinA, Citrobacter braakii, UniProt Q8VQF6, N242A)", "test": "binding", "Kd": "12600 ± 1730 nM"}
{"SMILES": "O=S(=O)(F)Cc1ccccc1", "target": "Nuclear receptor subfamily 2 group C member 2, ligand-binding domain (Homo sapiens, UniProt P49116)", "test": "SPR imaging", "Kd": "0.0897 nM"}
{"SMILES": "Oc1ccc(/C=C/c2cc(O)cc(O)c2)cc1", "target": "O-methyltransferase (Sorghum bicolor, UniProt A0A1B6PFV1, W279A)", "test": "isothermal titration calorimetry", "setting": "SFG-saturating", "Kd": "27600 nM"}
{"SMILES": "CSCC[C@H](NC(=O)[C@H](CC(C)C)NC(=O)[C@H](C)NC(=O)[C@H](CCCNC(=N)N)NC(=O)[C@H](Cc1ccc(OP(=O)(O)O)cc1)NC(=O)[C@H](Cc1ccccc1)NC(=O)[C@H](CC(N)=O)NC(=O)[C@H](CO)NC(=O)[C@H](CC(=O)O)NC(=O)[C@@H](NC(=O)[C@@H]1CCCN1C(=O)[C@H](CO)NC(=O)[C@@H]1CCCN1C(=O)[C@H](CC(C)C)NC(=O)c1ccc2c(c1)C(=O)OC21c2ccc(N(C)C)cc2Oc2cc(N(C)C)ccc21)[C@@H](C)O)C(=O)N[C@@H](CC(=O)O)C(=O)N[C@@H](CCC(=O)O)C(=O)N[C@@H](CCC(=O)O)C(=O)N[C@@H](CC(=O)O)C(=O)O", "target": "Growth factor receptor-bound protein 7, SH2 domain (GRB7, Homo sapiens, UniProt Q14451)", "test": "binding", "Kd": "755 nM"}
{"SMILES": "Nc1nc2c(ncn2[C@@H]2O[C@H](COP(=O)(O)OP(=O)(O)OP(=O)(O)O)[C@@H](O)[C@H]2O)c(=O)[nH]1", "target": "GTP 3',8-cyclase (moaA, Staphylococcus aureus, UniProt P69848, R268K)", "test": "binding, anaerobic ITC", "setting": "25 °C, R268K mutant", "Kd": "1260 ± 930 nM"}
{"SMILES": "CC(C)C[C@H](NC(=O)[C@@H](NC(=O)[C@H](CO)NC(=O)[C@H](CO)NC(=O)[C@@H](NC(=O)[C@H](CC(=O)O)NC(=O)[C@H](CC(C)C)NC(=O)[C@@H]1CCCN1C(=O)[C@H](CO)NC(=O)c1ccc2c(c1)C(=O)OC21c2ccc(N(C)C)cc2Oc2cc(N(C)C)ccc21)[C@@H](C)O)C(C)C)C(=O)N[C@@H](Cc1ccc(OP(=O)(O)O)cc1)C(=O)N[C@H](C(=O)N[C@@H](C)C(=O)N[C@H](C(=O)N[C@@H](CCC(N)=O)C(=O)N1CCC[C@H]1C(=O)N[C@@H](CC(N)=O)C(=O)N[C@@H](CCC(=O)O)C(=O)N[C@@H](CC(=O)O)C(=O)O)C(C)C)[C@@H](C)O", "target": "SH2B3, SH2 domain (Homo sapiens, UniProt Q9UQQ2)", "test": "binding", "Kd": "508 nM"}
{"SMILES": "O=C(O)[C@H]1O[C@@H](Oc2c(-c3ccc(O)c(O)c3)oc3cc(O)cc(O)c3c2=O)[C@H](O)[C@@H](O)[C@@H]1O", "target": "Small ribosomal subunit protein uS2 (RPSA, Homo sapiens, UniProt P08865)", "test": "binding", "Kd": "252 ± 9 nM"}
